Measured values from different studies.
Each line is one published result; not all experiments were run side by side. Several values in a cell are separate wells, animals, samples, runs or records.
Target: Protein kinase C eta type (PRKCH, Homo sapiens, UniProt P24723)

| Structure (SMILES) | assay | setting | scale | quantity | value |
| --- | --- | --- | --- | --- | --- |
| CNC(=O)C[C@H](Cc1ccc(C#N)cc1)NC(=O)c1cc(-c2ccc(CN[C@H](C)c3ccc(C)cc3)o2)ccc1Cl | enzyme activity, inhibitor | 1 µM | – | activity vs control | 120% |
| COCC12C(=O)NC3C4(C(OC)CC1O)C1CC5(O)C(OC)C(O)C(OC(C)=O)(C1C5OC(=O)c1ccccc1)C3(O)C(OC)C24 (centres unmarked) | kinase activity, inhibitor, ProQinase kinase profiling | 25 µM | baseline: control | remaining activity | 108% and 105% |
| CCN1CCN(Cc2ccc(C(=O)Nc3ccc(C)c(NCc4cnc5[nH]ccc5c4OC)c3)cc2C(F)(F)F)CC1 | binding, competition with immobilised ligand | 1 µM | – | remaining binding | 95% |
| O=C=[N][Ru-4]123([n]4c5ccc(O)cc5c5c6c(c7cc(F)c[n+]1c7c54)C(=O)NC6=O)[S+]1CC[S+]2CC[S+]3CC1 (centres unmarked) | enzyme activity | 100 nM, human enzyme, with: 10 µM ATP | baseline: untreated | remaining activity | 106% |
| Nc1ncc2c(n1)-c1c([nH]c3ccc(C4=CCOCC4)cc13)CCC2 | binding, competition with immobilised ligand | 1 µM | – | remaining binding | 99% |
| COc1ccc(NC(=O)Nc2ccc3c(c2)C(=O)N(C(C)CO)CC(C)C(CN(C)Cc2ccc4c(c2)OCO4)O3)cc1 (centres unmarked) | kinase activity, KinaseProfiler | 0.03 µM, species human | baseline: control | remaining activity | 96% |
| CC(C)=CC1OC(C)(C)C2C=C3C(=O)C(Cl)=CC(O)C3C3C(O)C4OC4C(=O)C132 (centres unmarked) | cell-free assay, competition with immobilised ligand | 10 µM | – | remaining binding | 90% |
| Cc1ccc(-c2c(/C=C(\C#N)C(=O)NC(C)C)n(CCCO)c3ncnc(N)c23)cc1 | cell-free assay, competition with immobilised ligand | 1 µM | – | remaining binding | 90% |
| Cc1cccc(O[C@H]2CCC[C@@H](C(C)CNCc3ccncc3)C2)c1 (relative stereo) | enzyme activity | 10 µM | – | inhibition | -1% |
| COc1c(Cl)cccc1Nc1c(-c2ccncc2C#C[C@@]2(C)CCCN2C(=O)/C=C/CN(C)C)[nH]c2c1C(=O)NCC2 | cell-free assay, competition with immobilised ligand | 3 µM | – | remaining binding | 83% |
| NC(=O)C[C@H]1CCc2sc3ncnc(O[C@H]4CC[C@H](N5CCOCC5)CC4)c3c21 | enzyme activity, inhibitor | 10 µM | – | inhibition | 3% |
| CN1CCN(Cc2ccc(-c3ccc(CO[C@H]4CCC[C@@H]4NC(=O)c4cc(-c5cnn(C)c5)cnc4N)cc3)cc2)CC1 | enzyme activity, inhibitor | 0.1 µM | – | inhibition | 2% |
| O=c1c(-c2ccc(Cl)c(CN3CCOCC3)c2)coc2cc(O)ccc12 | enzyme activity, inhibitor | 1 µM | – | remaining activity | 104% |
| C=CC(=O)Nc1cccc(-c2cnc3[nH]cc(C(=O)NC(C)(C)C)c3n2)c1 | enzyme activity, inhibitor | 0.1 µM | – | inhibition | 2% |

Some of these lines once more:
| Structure (SMILES) | assay | setting | scale | quantity | value |
| --- | --- | --- | --- | --- | --- |
| CC(C)=CC1OC(C)(C)C2C=C3C(=O)C(Cl)=CC(O)C3C3C(O)C4OC4C(=O)C132 (centres unmarked) | cell-free assay, competition with immobilised ligand | 10 µM | – | remaining binding | 90% |
